Literature values, collected from citations in different studies.
Each line is one published result; not all experiments were run side by side. ± marks the error that the study gave. Values after ≈ are worked out from the molar mass of the structure shown.
Sequence of UniProt Q9NRM7 (whole entry, looked up): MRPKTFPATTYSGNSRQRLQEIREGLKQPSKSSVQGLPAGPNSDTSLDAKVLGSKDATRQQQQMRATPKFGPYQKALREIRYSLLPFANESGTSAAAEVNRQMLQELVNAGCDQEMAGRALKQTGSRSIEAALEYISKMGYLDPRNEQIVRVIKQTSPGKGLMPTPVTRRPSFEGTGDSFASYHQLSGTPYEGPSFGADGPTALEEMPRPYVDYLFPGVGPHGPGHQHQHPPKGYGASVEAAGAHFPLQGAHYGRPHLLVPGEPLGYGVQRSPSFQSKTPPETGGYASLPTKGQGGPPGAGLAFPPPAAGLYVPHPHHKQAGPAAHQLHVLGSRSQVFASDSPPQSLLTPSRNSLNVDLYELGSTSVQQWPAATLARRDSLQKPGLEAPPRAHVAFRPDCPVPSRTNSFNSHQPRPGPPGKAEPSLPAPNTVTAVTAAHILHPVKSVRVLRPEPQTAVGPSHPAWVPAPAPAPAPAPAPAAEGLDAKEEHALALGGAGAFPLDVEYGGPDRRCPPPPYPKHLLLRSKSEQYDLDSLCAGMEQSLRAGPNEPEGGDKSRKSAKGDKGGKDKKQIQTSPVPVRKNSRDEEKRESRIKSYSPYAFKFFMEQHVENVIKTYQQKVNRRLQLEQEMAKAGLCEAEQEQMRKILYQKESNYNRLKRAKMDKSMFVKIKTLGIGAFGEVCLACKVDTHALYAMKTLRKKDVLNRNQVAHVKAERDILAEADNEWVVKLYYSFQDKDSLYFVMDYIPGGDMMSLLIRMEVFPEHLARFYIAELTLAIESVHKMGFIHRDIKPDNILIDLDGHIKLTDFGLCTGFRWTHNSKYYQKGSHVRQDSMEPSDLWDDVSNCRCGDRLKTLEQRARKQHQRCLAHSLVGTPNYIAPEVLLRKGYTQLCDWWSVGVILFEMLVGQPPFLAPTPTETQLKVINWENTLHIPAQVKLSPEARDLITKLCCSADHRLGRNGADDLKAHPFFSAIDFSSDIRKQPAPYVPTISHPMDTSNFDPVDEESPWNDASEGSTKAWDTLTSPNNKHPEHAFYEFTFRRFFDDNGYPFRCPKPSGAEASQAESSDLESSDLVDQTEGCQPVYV

N=C(N)c1ccc(Nc2ccc(-c3cc4ccc(C(=N)N)cc4[nH]3)cc2)cc1 — IC50 (K562; cell proliferation): 1080 nM
Cc1c(C#N)cccc1[C@@H](C)Nc1nnc(C)c2cnc(N3CCOCC3)cc12 — IC50 (NCI-H508; 3D cell viability; 14 d): 98.5 ± 29 nM
CN(c1ccc(NC(=O)c2ccc(C#N)cc2)cc1OCc1ccccc1)S(C)(=O)=O — IC50 (SK-BR-3; cell growth, MTT; 48 h): 16900 ± 6530 nM
CC(=O)c1ccc(-c2cccc(NC(=O)CCc3cccc4c3B(O)OC4)c2)cc1 — IC50 (lung fibroblast cell line; cell proliferation): 3700 nM
CC1(C)S[C@@H]2[C@H](NC(=O)[C@H](N)c3ccccc3)C(=O)N2[C@H]1C(=O)O — MIC (Escherichia coli; clinical isolate RKI-No_592/16): > 16 mg/L
CCCCN(CCCC)CC(O)c1cc(Cl)cc2c1-c1ccc(Cl)cc1/C2=C/c1ccc(Cl)cc1 (centres unmarked) — IC50 (HepG2; cell viability): > 250000 nM
CNC(=O)c1cc(Oc2ccc(NC(=O)Nc3ccc(Cl)c(C(F)(F)F)c3)cc2)ccn1 — IC50 (U-87 MG): 35900 nM
O=c1[nH]cc(F)c(=O)[nH]1 — IC50 (HepG2): 258000 nM
COc1cc2c(Oc3ccc(NC(=O)c4nccc(-c5ccc(F)cc5)n4)cc3F)ccnc2cc1OCCCN1CCCC1 — IC50 (A549; cell growth; 72 h): 990 nM
CN(C)c1ccc(C(=O)N(CC(=O)NCc2ccccc2)Cc2ccc(C(=O)Nc3ccccc3N)cc2)cc1 — IC50 (Cal27CisR; cellular HDAC activity, inhibitor; added: Boc-Lys(ε-Ac)-AMC substrate): 491 ± 52 nM
O=C(O)c1[nH]c2ccccc2c1C1NCCc2ccccc21 (centres unmarked) — IC50 (COLO 205; cytotoxicity): > 100000 nM
O=C(Nc1ccc(Oc2ccnc3[nH]ccc23)cc1)c1cc2cccnc2n(-c2ccc(F)cc2)c1=O — IC50 (A549; cell growth; 72 h): 210 nM
CO[C@H]1C[C@@H]2CC[C@@H](C)[C@@](O)(O2)C(=O)C(=O)N2CCCC[C@H]2C(=O)O[C@H]([C@H](C)C[C@@H]2CC[C@@H](O)[C@H](OC)C2)CC(=O)[C@H](C)/C=C(\C)[C@@H](O)[C@@H](OC)C(=O)[C@H](C)C[C@H](C)/C=C/C=C/C=C/1C — IC50 (U-87 MG): 50 nM
COc1cc2c(Oc3ccc(NC(=O)c4nn(-c5ccccc5)c(=O)cc4C)cc3F)ccnc2cc1OCCCN1CCCCC1 — IC50 (A549; cell growth; 72 h): 150 nM
Nc1cccc2c1C(=O)N(C1CCC(=O)NC1=O)C2=O (centres unmarked) — IC50 (PBMCs; refers to: TNF-alpha release; added: LPS): 13 nM
CC(=O)c1c(C)c2cnc(Nc3ccc(N4CCNCC4)cn3)nc2n(C2CCCC2)c1=O — IC50 (U-87 MG): 59000 nM
CNC(C)C1CCC(N)C(OC2C(N)CC(N)C(OC3OCC(C)(O)C(NC)C3O)C2O)O1 (centres unmarked) — MIC (Escherichia coli; clinical isolate RKI-No_514/16): 2 mg/L (≈ 4.19 µM)
CCOC(=O)c1nn(-c2ccccc2)c(C#N)c1NC(=O)c1nn(CC)cc1Br — IC50 (human monocytes; phagocytosis of anti-D RBCs): 2700 nM
Nc1cc(C(F)(F)F)c(-c2nc(N3CCOCC3)nc(N3CCOCC3)n2)cn1 — remaining activity (Serine/threonine-protein kinase LATS2 (LATS2, Homo sapiens, UniProt Q9NRM7); enzyme activity; 10 µM; reference: untreated): 100%
Cc1cc(-c2nccc3c2ccn3CC(=O)Nc2ccc(-c3cnccn3)cn2)ccn1 — IC50 (HPAF-II; cell proliferation, inhibitor): 13.1 nM
COc1cc2c(Oc3ccc(NC(=O)N/N=C/c4ccccc4)cc3F)ccnc2cc1OCCCN1CCCCC1 — IC50 (A549; cell growth; 72 h): 160 nM
COc1ccc(CC(=O)Nc2ccc(N(C)S(C)(=O)=O)c(OCc3cc(C)ccc3C)c2)cc1OC — IC50 (SK-BR-3; cell growth, MTT; 48 h): 34000 ± 2010 nM
CO[C@@H]1CCN(c2nccc(Nc3cc4c(C(C)C)ccc(N5C[C@H](CS(C)(=O)=O)[C@H]5C)c4cn3)n2)C[C@@H]1F — IC50 (Ba/F3 EGFR Del19/T790M/C797S; cell growth): 4 nM
C[C@@H](c1ccc2nccn2c1)n1nnc2ncc(-c3cnn(C)c3)nc21 — IC50 (U-87 MG): 13700 nM
C[C@H]1COCCN1c1nc(-c2cnc(N)cc2C(F)F)nc(N2CCOCC2)n1 — GI50 (ACHN): 231 nM
CC(C)(c1ccc(O)cc1)c1ccc(O)cc1 — IC50 (MDA-kb2; cell viability; 24 h): > 100000 nM
NC1(c2ccc(-c3nc4ccn5c(=O)[nH]nc5c4cc3-c3ccccc3)cc2)CCC1 — IC50 (U-87 MG): 28900 nM
Nc1nc(Cl)nc2c1ncn2[C@H]1C[C@H](O)[C@@H](CO)O1 — IC50 (U-266): ~2430 nM
CC(=O)Nc1cccc(-n2c(=O)n(C3CC3)c(=O)c3c(Nc4ccc(I)cc4F)n(C)c(=O)c(C)c32)c1 — IC50 (U-87 MG): 2720 nM
CN(c1ccc(NC(=O)c2ccc(Cl)c([N+](=O)[O-])c2)cc1OCc1ccccc1)S(C)(=O)=O — IC50 (SK-BR-3; cell growth, MTT; 48 h): 9220 ± 4110 nM
Cc1nc(NC(=O)N2CCC[C@H]2C(N)=O)sc1-c1ccnc(C(C)(C)C(F)(F)F)c1 — IC50 (U-87 MG): 62600 nM
COc1cc2c(Oc3ccc(CC(=O)N/N=C(/C)c4ccccc4)cc3F)ccnc2cc1OCCCN1CCCC1 — IC50 (A549; cell growth; 72 h): 280 nM
